Published values gathered from unrelated publications.
Compare with care: the assays were run in different laboratories. Several values in a cell are separate wells, animals, samples, runs or records. Numbers after ± are the reported error.
Sequence of UniProt P10632 (whole entry, looked up): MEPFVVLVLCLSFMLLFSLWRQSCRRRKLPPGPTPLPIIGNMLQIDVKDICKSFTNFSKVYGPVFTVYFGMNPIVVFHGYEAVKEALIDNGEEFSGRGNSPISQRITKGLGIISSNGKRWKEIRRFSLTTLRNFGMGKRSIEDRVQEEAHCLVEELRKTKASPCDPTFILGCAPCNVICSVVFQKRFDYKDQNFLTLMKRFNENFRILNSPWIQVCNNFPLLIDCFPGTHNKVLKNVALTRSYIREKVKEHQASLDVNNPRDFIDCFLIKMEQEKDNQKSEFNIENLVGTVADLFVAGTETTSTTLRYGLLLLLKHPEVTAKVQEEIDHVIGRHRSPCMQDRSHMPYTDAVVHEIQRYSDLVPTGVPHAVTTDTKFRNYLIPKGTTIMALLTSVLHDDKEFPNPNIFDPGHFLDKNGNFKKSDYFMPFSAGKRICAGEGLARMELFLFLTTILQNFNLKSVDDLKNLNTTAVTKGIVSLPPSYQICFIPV

SMILES | tested on | assay | system | conditions | scale | endpoint | result
O=C(Nc1cnccc1-c1ccc([18F])cc1)c1ccnc(NC(=O)C2CC2)c1 |  |  | FVB/NJ mice (both sexes), small intestine | intravenous, dose not given, 120 min, added: tariquidar 15 mg/kg i.v. pre-dose |  | SUV | 2.22
CC(C)OCCOCc1ccc(OCC(O)CN(N=O)C(C)C)cc1 (centres unmarked) | Escherichia coli | Ames test | WP2 uvrA | 5 µg/plate, 30 % hamster S9 | baseline: solvent control | revertant fold increase | 1.1 fold
CNC(=O)C1CCCN(C(=O)C2CC3CCC2N3C(=O)[C@@H]2C[C@@H](O)CN2C(=O)NCc2cccc(Cl)c2F)C1 (mixture of isomers) | Cytochrome P450 2C8 (CYP2C8, Homo sapiens, UniProt P10632) | preincubation without NADPH | human | 5.56 µM | baseline: negative control | remaining activity | 69.6% and 85% and 86.3%
N#C[C@@H]1CC(F)(F)CN1C(=O)CNC(=O)c1ccnc2c(NC(=O)[C@H](CCCCNC(=O)CCOCCOCCOCCOCCOCCOCCNC(=O)CN3CCN(CC(=O)[O-])CCN(CC(=O)[O-])CCN(CC(=O)[O-])CC3)NC(=O)CCCc3ccc(I)cc3)cccc12.[177Lu+3] | U-87 MG tumour model |  | host not given, heart | 24 h, tumour-bearing |  | tracer uptake | 1.72 %ID/g
O=C(Nc1cnccc1-c1ccc([18F])nc1)c1ccnc(NC(=O)C2CC2)c1 |  |  | FVB/NJ mice (both sexes), liver | intravenous, dose not given, 120 min, added: tariquidar 15 mg/kg i.v. pre-dose |  | SUV | 7.19
C=C(NC(=O)c1csc(-c2nc3c(cc2O)-c2nc(cs2)C(=O)NC(C(C)O)C(=O)NC(=C(C)OC)c2nc(cs2)C(=O)NC2c4nc(cs4)C(=O)NC(COC(=O)c4c5c6c(cccc6n4O)COC(=O)C(OC4CC(C)(O)C(N(C)C)C(C)O4)C2OC5)c2nc-3cs2)n1)C(N)=O (centres unmarked) |  |  | Sprague-Dawley rat, female, plasma | intravenous infusion, 18 mg/kg single dose |  | MRT(0-last) | 1.84 h
O=C1C2CC3CC1CC(C(=O)N1CCN(c4ccc([N+](=O)[O-])c5ncccc45)CC1)(C3)C2 | Salmonella typhimurium | Ames test | TA1535 | 0.02 µg/well, with S9 | baseline: vehicle | revertant fold increase | 0.8
CC(C)(O)c1ncc([S@](N)(=O)=NC(=O)Nc2c3c(cc4c2CCC4)CCC3)s1 |  | refers to: nervous system disorders | healthy human volunteers | oral, 100 mg once daily, 14 days, spray-dried dispersion |  | subjects with adverse events | 17%
CN1CCCNC(=O)c2cccc(c2)C(=O)NCCCN(C)CCCNc2cccc3c2C(=O)c2cccc(c2C3=O)NCCC1 | HSC-2 | cell growth or viability, CCK-8 |  | 5 µM, 48 h |  | viability | 16.3%
CCN(CC)CC#CCNc1ccnc2cc(Cl)ccc12 | Salmonella typhimurium | mini-Ames test | TA98 | 250.0 µg/well, without S9 |  | mean revertants | 11 revertants/well
O=C1NC2(CC2)COc2ncc(F)cc2[C@H]2COCCN2c2ccn3ncc1c3n2 | Salmonella typhimurium | Ames test | TA97a | 500 µg/plate, 48 h, added: without S9 |  | revertant colonies | 82 ± 14 revertants/plate

For quick reference, copied from above:
SMILES | tested on | assay | system | conditions | scale | endpoint | result
CC(C)(O)c1ncc([S@](N)(=O)=NC(=O)Nc2c3c(cc4c2CCC4)CCC3)s1 |  | refers to: nervous system disorders | healthy human volunteers | oral, 100 mg once daily, 14 days, spray-dried dispersion |  | subjects with adverse events | 17%
